# Assay results of several laboratories.
# Each numbered part is a random draw from the data of one study; scales do not carry over between parts.

# Series 1 — method: protein binding microarray; form: double-stranded DNA, one strand shown; medium: in vitro; concentration: not given; relative to: not given; reading: higher = stronger binding
# Target: Histone acetyltransferase KAT6A, both winged helices, GST fusion (KAT6A, Homo sapiens, UniProt Q92794, residues 1-181)
# Setting: 8-mer, flanks averaged, mean of 2 arrays, mostly near background
# Target sequence (chain): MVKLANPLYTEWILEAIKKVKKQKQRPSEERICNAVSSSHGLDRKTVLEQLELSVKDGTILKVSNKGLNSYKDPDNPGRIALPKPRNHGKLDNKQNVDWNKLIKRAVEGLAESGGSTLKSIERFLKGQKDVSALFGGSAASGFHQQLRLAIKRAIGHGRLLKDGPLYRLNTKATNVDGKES
Sequence,E-score
ACAGAACA,0.034
CCTCGACG,0.00843
GGAGGCAA,-0.0703
CGATTTAC,0.116
GGACACCA,-0.0777
AGGCAGCC,-0.112
AGCCGTCG,0.344
CTCGCATA,0.129
CCAATGTA,-0.115
AGCCAATC,-0.148
ACTTCTCC,-0.206
GTCGGCAC,0.175
GAAATGTC,0.0458
AACTGCAT,-0.113
CATAGACG,0.0989
CCTAACCC,0.011
CAGGGTCC,-0.0626
ACTGAGTA,-0.112
TTGACAAA,-0.0523
AGTATTAG,-0.136
CACGACCG,0.126
ATCGCTGA,-0.0188
CTGCGTTA,0.0522
TAATCCGA,0.0333
CTCCTGCC,-0.144

# Series 2 — method: RNA Bind-n-Seq; form: RNA; medium: in vitro; concentration: 200 nM; setting: whole 134-nt RNA, ends assumed; added: 150 mM KCl; relative to: input library; reading: higher = stronger binding
# Target: Ras GTPase-activating protein-binding protein 1, full length (G3BP1, Homo sapiens, UniProt Q13283)
# Chain of UniProt Q13283 (whole entry, looked up): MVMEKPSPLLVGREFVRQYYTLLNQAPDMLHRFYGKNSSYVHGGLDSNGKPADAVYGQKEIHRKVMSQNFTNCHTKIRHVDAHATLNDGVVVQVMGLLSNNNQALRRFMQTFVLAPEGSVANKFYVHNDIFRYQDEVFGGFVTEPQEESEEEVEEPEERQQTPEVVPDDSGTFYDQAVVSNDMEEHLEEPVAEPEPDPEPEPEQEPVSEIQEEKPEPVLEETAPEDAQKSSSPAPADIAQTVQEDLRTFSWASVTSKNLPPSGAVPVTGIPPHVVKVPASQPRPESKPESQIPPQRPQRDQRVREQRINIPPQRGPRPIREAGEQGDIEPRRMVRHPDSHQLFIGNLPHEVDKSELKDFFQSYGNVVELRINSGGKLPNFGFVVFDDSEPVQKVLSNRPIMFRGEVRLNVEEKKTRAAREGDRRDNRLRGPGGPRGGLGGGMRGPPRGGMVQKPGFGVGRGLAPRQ
# Constant ends, left off below: GGGAGUUCUACAGUCCGACGAUC … UGGAAUUCUCGGGUGUCAAGG
Sequence,log2 enrichment
ACCAUGCAGGUGGGCAUCUUUGGGAAGUGGGGCAAGGGGGGGAUAGGGAGGGGAGUAACACUUUGGGAACAGGUGGUCCCAGGUCGUUUC,1.27
GUCCUGUGCUACACAUCGUAUGUACCGAAUCAAAUUUUUAAAUUUUUUUAAAUUUAAAAAAGUAUUAUGUUACGCCGUUCGGAUCUGCAC,-1.62
GCAGGAAGUAAAAACAAAUGGAAAUGCUUCGGAUAGUGGCAGGGGUGGGGGUUGCUAAGGAAAGGGUGGGAUGGGAGUGUGUAAAGAGUU,0.812
AAGUCCUGUGCUACACAUCGUAUGUACCGAAUCGGGGCCCCGGCCCCGGCCCCGGGAAAGUAUUAUGUUACGCCGUUCGGAUCUGCACUU,-0.975
CCUGUGCUACACAUCGUAUGUACCGAAUCGGGGUUUGGGGAAAAAAAGGGGUUUUUGGGGAAAGUAUUAUGUUACGCCGUUCGGAUCUGC,0.212
UCAAGUCCUGUGCUACACAUCGUAUGUACCGAAUCGGGUUGGGGUUGGUUGGGGAAAGUAUUAUGUUACGCCGUUCGGAUCUGCACUUCC,0.666
CAAGUCCUGUGCUACACAUCGUAUGUACCGAAUCGGGGUUGGGGUUGGGGUUGGGGAAAGUAUUAUGUUACGCCGUUCGGAUCUGCACUU,0.766
UCCUGUGCUACACAUCGUAUGUACCGAAUCGGGGUGGGGUUUUUUUGGGGAAAAAGGGGAAAGUAUUAUGUUACGCCGUUCGGAUCUGCA,0.658
UUCCGCGACUACCGGCGUGUGCACAAGCCGCCCAAGGUGCAGGAGAAGUGCCAGCUGGAGAUCAACUUCAACACGCUGCAGACCAAGCUG,-1.25
ACCAUGCAGGUGGGCAUCUUUGGGAAGUGGGGCAAGGGGGGGAUAGGGAGGGGGGUAACACUAUGGGAACAGGUGGUCCCAGGUCGUUUC,1.16
AAGUCCUGUGCUACACAUCGUAUGUACCGAAUCGGGAAAAAGGGUGGGAAAAAGGGAAAGUAUUAUGUUACGCCGUUCGGAUCUGCACUU,0.146
UGGGAGGUGGAUUUUGUUUAUUUUUUUAGCUCAUUUCCAGGGGUGGGAAUUUUUUUUUAAUAUGUGUCAUGAAUAAAGUUGUUUCUGAAA,0.402
GCAGGAAGUAAAAACAAAUGGAAAUGCUUCGGAUAAAAGCAGGGGUGGGGGUUGCUAAGGAAAGGGUGGGAUGGGAGUGGGUAAAGAGUU,1.02
UCCUGUGCUACACAUCGUAUGUACCGAAUCGGCCCCCCGGGCCCCCCGGGGCCCCCCGGGAAAGUAUUAUGUUACGCCGUUCGGAUCUGC,-0.654

# Series 3 — method: RNA Bind-n-Seq; form: RNA; medium: in vitro; concentration: not given; relative to: input RNA pool; reading: higher = stronger binding
# Target: RING finger protein unkempt homolog, zinc fingers 1-6, GST-SBP tag (UNK, Homo sapiens, UniProt Q9C0B0, residues 30-357)
# Setting: RNA with constant flanks, human and mouse sites, ends assumed
# Constant ends, left off below: GGGAGUUCUACAGUCCGACGAUC … CAACAGAGGAUUGAGCAUCA
# Residues (chain): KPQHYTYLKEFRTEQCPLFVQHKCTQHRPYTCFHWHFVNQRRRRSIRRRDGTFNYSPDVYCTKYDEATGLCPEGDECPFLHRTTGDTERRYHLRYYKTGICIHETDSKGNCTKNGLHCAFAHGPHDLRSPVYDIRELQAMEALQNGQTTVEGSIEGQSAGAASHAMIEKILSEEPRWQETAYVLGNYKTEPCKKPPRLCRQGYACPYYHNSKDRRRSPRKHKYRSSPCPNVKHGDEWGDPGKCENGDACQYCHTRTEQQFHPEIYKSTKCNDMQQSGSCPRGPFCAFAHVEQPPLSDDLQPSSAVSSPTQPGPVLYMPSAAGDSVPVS
Sequence,bound/input enrichment [ratio]
CUGGCGCACUCGGAGGAGCCGCUCACCAUCUUCAGCGGGGCCCUGCUCUAUGGGGACCCAGAGCUUGAACACGCGUAGACUGGGGUCCCGCCCGACGUGUCUACGUCGGCUGAAGAGACA,0.123
AAGGCACGGCUGACCUGCCCUUGCUGUAACAUGCGUAAAAAGGAUGCAGUACUUACCAAGUGUUUUCACGUUUUCUGCUUUGAGUGUGUGAAGACGCGCUAUGACACUCGCCAGCGCAAG,0.103
GAAGAUUUCUAUUCAACAUUUCAGGUUUUUCAAGAAGAAUUUGGAGUAAUUAAAUCCUAUAACUUAAAACCAGGGGGUGAUAAGAUUCCAGUUACCAAUCAGAAUAGAAGAGAGUAUGUA,0.707
GCAAUAAAAAUAAUCGAUAAGUCUCAGCUGGAUGCAGUGAACCUUGAGAAAAUCUACCGAGAAGUACAAAUAAUGAAAAUGUUAGACCACCCUCACAUAAUCAAACUUUAUCAGGUAAUG,0.394
UUCCUGCUUCUGUUUCUGCAGAGCUUCCUUCUCCUACAUCUGCUUGCUGCUGGGAUACCCGUCACCACCCCUGGUCCUUUUACUGUGCCAUGGCAGGCAGUCUCGGCUUGGGCCCUCAUG,0.13
GCAGCAGCCUCCACUGAGUUUGAGAAUGCUGAAUCUGAGGCUGAUUUCAGUAUCCAUUUCAAUAGGUUCAACCCUGAUGGGGAAGAGGAGGAUGUUACAGUACACGAAUGACGUUUCCUU,0.0806
AUGCAGUCUGUGAUUGAACUUGGAAGAGUGAUCAGAGACCGAAAAACUAUUCCCAUAAAGUAUCCUUUGAAAGAAAUUGUGGUUAUCCAUCAAGAUCCAGAAGCUCUUAAAGAUAUCAAG,0.0489
CAGAUCCAUAGGGAUUUGAAAGCUGGAAAUAUUCUUCUGGGUGAGGAUGGCUCAGUACAAAUAGCAGAUUUUGGAGUAAGCGCAUUCUUAGCCACAGGGGGUGAUGUUACACGGAAUAAA,0.415
UAUGGUUUUGAGAAGCCCUCUGCCAUCCAGCAGCGAGCCAUUCUACCUUGUAUCAAGGGUUAUGAUGUGAUUGCUCAAGCCCAAUCUGGGACUGGGAAAACGGCCACAUUUGCCAUAUCG,0.221
GAAGUUCCCCAUUGUCACUGAGAACCACCAAAUUUGACUUUCACAUUUGGUCUCAGAAUUUAGGUUCCUGCCCUGUUGUUUUUCUUUCUUUUUCUUUUUUUUUUUUCUCCCCUCCCCUUU,4.19
AAAGCCCGAGACAGAAAACUUCUUGCUAUCUACCUCCACCAUGAUGAAAGUGUACUAACCAACGUGUUCUGCUCACAAAUGCUUUGUGCUGAAUCCAUUGUUUCCUAUCUGAGUCAAAAU,0.249

# Series 4 — method: competition protein-binding microarray; form: double-stranded DNA, one strand shown; medium: in vitro; concentration: 2 µM; added: Pho4 competitor, 0.05 µM; reading: higher = stronger binding; constant ends, left off below: … GTCTTGATTCGCTTGACGCTGCTG
# Target: Centromere-binding protein 1, full length, His-tagged (CBF1, Saccharomyces cerevisiae, UniProt P17106, residues 1-351)
# Chain of UniProt P17106 (whole entry, looked up): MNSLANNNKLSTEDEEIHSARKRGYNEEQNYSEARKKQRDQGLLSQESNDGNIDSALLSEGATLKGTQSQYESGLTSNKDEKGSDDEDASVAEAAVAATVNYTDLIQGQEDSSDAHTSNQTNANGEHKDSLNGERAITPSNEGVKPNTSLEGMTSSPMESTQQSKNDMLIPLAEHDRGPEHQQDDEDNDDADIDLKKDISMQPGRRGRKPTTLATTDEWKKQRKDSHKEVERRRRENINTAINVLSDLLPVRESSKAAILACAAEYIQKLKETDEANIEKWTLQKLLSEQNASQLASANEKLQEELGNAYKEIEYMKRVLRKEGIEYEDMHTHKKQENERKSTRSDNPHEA
# Setting: whole 60-bp probe, lowest competitor level
Sequence,fluorescence intensity
TTTTTAATTCGGAATCAGGTGAAAGGTTTTATATCC,371 a.u.
ACATCTTTCAATTTGCACGGGTGCAACCTCAAATAT,153 a.u.
CAAAAGAAAAAGTTTGACGTGATGGATCCATCTAAC,98.9 a.u.
AACTCTCGCAGCCGTCACGTGCAAATTGATACAAGT,4990 a.u.
GCAAGACCTAAAAAATTCGTGCCAGGGTTTGAGCTA,56.8 a.u.
ACATTGGCATTGGCACTCATGACAATCATTTTGGAA,84.9 a.u.
CAGTCTACCAAGGTGAACGTGTTGACTGTAAAGAAA,74.6 a.u.
CTTCTGTAAATTTGAATCGTGGGTGGACGCGCCCCG,77.3 a.u.
TATGGTAACCTCTGCCATGCTGTCTCTGTTCCTTGA,71.4 a.u.
TCCAACCTGCAAGGGGTCGTGCCAGTGACGAAAAGA,84.4 a.u.
AGGCAAGAAAGAGGATGCGTGCCGAAGCTCGGTTAG,70.5 a.u.
CAGGGCACCGGTGCCGTCGTGATGGCCTCGTTGATT,60.8 a.u.
ATTGCTTAGCACCGTCACGTCTTTCGTTGGCTGTCA,87.5 a.u.
AAATTACTAAGTTTTCACGTGACCTACCCCGTATGA,11400 a.u.
GATGAACTTGTTTAGCACGTGAATATAAGATGAGAG,1780 a.u.
ATATGGATTGATTTTCACATGTATCGTTTATGAGTA,178 a.u.
TCACTCCTAGTTTTCCATGTGGCTTCAGCTCGAGGA,78.9 a.u.
GTCTTGTCTCATTCTCACGTGTTTTTCCCCACTTCA,1230 a.u.
CATACCCAACCTTTTCACGTGGCGTAAGATATTTGT,740 a.u.

# Series 5 — method: universal PBM; form: double-stranded DNA, one strand shown; medium: in vitro; concentration: not given; reading: higher = stronger binding
# Target: Sal-like protein 4, full length isoform B (SALL4, Homo sapiens, UniProt Q9UJQ4-2, residues 1-616)
# Setting: 8-mer, flanks averaged, mean of replicates
Sequence,E-score
GCTAATCA,0.0888
GCCACGAC,-0.112
AGCCCGCT,-0.159
AACTAAGG,0.0207
CCTGTGCG,-0.216
CGTCGTCC,-0.244
AGCCAAGG,-0.105
AGGAGGAT,-0.00388
ACCTTAAT,0.203
AGTTGATC,0.021
ACTTTGCT,0.084
CCGCACGG,-0.283
GCTTTTAC,0.161
CTGATATA,0.3
ACCCAGAG,-0.0859
CGCCCCGC,-0.336

# Repeated from above (series 1):
Sequence,E-score
CTCCTGCC,-0.144
CACGACCG,0.126
CAGGGTCC,-0.0626
GGACACCA,-0.0777
ACTTCTCC,-0.206
